Measurements collected from several papers.
Each line is one published result; not all experiments were run side by side. pEC50, pIC50: −log10 of the molar value.

CCC(=CCc1c(O)cc2c(c1O)C(=O)CC(c1ccc(OC)cc1O)O2)CC (centres unmarked) — inhibition (HeLa; cell growth or viability, MTT; 1.563 µM, 48 h): 4.39%
[BH3-][P+]1(c2ccccc2)CCCCC1 — early apoptotic cells (HaCaT; annexin V/PI flow cytometry; IC50, 72 h): 2.85%
CCC(=CCc1c(O)cc2c(c1O)C(=O)CC(c1c(O)cccc1OC)O2)CC (centres unmarked) — inhibition (HeLa; cell growth or viability, MTT; 6.25 µM, 48 h): 8.04%
C=C(NC(=O)c1csc(-c2ccc(NC(=O)CCCCCBr)cc2)n1)C(=O)NC(=C)C(=O)OC — pEC50 (Calu-1; cell growth or viability): 5.51
C[C@@H]1CC[C@@H]([C@@](O)(CNCc2cccc(F)c2)COCc2ccccc2)[C@H](OCc2ccccc2)C1 — inhibition (A2780; cell growth or viability, MTT; 10 µM, 72 h): 95.2%
Cn1ncc2cc(-c3cncc(Cl)c3N3CCC4(CCNC4=O)CC3)ccc21 — log2 fold change (LS174T; gene expression, microarray, item: CXCL8 mRNA; concentration not given, 24 h; baseline: untreated cells): -26.3
CCOc1cncc(-c2ccc(NC(=O)C3(c4ccnc(NS(=O)(=O)C5CC5)n4)CCOCC3)nc2)n1 — pIC50 (NCI-H1299; cell growth or viability, ATP luminescence; 72 h): 6.88
CC[C@H](C)[C@H](NC(=O)[C@H](CCC(=O)O)NC(=O)[C@H](Cc1ccc(I)cc1)NC(C)=O)C(=O)N[C@@H](CC(=O)O)C(=O)COC(=O)c1c(C)cccc1C — cell lysis (THP-1 cells, LPS-primed; pyroptosis, LDH release; 25 µM, LPS 1 µg/mL, 4 h, together with: nigericin 5 µM, 2 h): 88.5%
CCC(CC)n1c(Cc2cccs2)nc2cc(C(=O)N[C@@H](CC(=O)O)c3ccccc3)ccc21 — mRNA level (3T3 fibroblasts; item: α-SMA, Fn1, Col1α2, Timp1; concentration not given, 48 h, together with: MCM): decreased
COC1CCN(C(=O)/C=C/c2nn(Cc3cccc(C(F)(F)F)c3)c3nc(NCc4ccccc4)ncc23)CC1 — pEC50 (FLO-1; cell growth or viability, resazurin; 5 days): < 4.52
CC(Br)C(=O)NC12CCCC(C)(CCC3C1CC3(C)C)C2 (centres unmarked) — inhibition (HT-29; cell growth or viability, CCK-8; 10 µM): < 50%
CNS(=O)(=O)Nc1nccc(Cc2c(C)c3ccc(Oc4ncccc4F)cc3oc2=O)c1F — pIC50 (CW-2; cell viability; 7 days): 7.04
Cc1ncsc1-c1ccc(C(C)NC(=O)C2CC(O)CN2C(=O)C(NC(=O)CCCCCCCCCCN2CCCC(Nc3ncc(Cl)c(Nc4ccccc4S(=O)(=O)C(C)C)n3)C2)C(C)(C)C)cc1 (centres unmarked) — log2 fold change (22Rv1; RNA-seq, item: PUDP mRNA; concentration not given; baseline: DMSO): -1.02
CC(C)Cc1ccc(C(C)C(=O)[Se]CC(=O)Nc2cccc(C(F)(F)F)c2)cc1 (centres unmarked) — TGI (NCI60 NSCLC subpanel mean; cell growth): 3.59 µM
CC12CCCC(n3cc(C(N)=O)nn3)(C1)C1CC(C)(C)C1CC2 (centres unmarked) — inhibition (HT-29; cell growth or viability, CCK-8; 50 µM): 88.8%
COC(=O)c1cc(NC2=NC(=O)C(=Cc3ccc(N(C)C)cc3)S2)ccc1OC(C)=O — fold change (A549; item: CDC14A mRNA; 2.93 µM, 24 h; baseline: DMSO): 0.0143
O=S(=O)(N[C@H]1CCO[C@@H](C2c3ccc(F)cc3CCc3cc(F)ccc32)C1)c1ccc(OC(F)(F)F)cc1 — cell proliferation (D341; CellTiter; concentration not given, 72 h): decreased

A few entries again:
CC(Br)C(=O)NC12CCCC(C)(CCC3C1CC3(C)C)C2 (centres unmarked) — inhibition (HT-29; cell growth or viability, CCK-8; 10 µM): < 50%
COC1CCN(C(=O)/C=C/c2nn(Cc3cccc(C(F)(F)F)c3)c3nc(NCc4ccccc4)ncc23)CC1 — pEC50 (FLO-1; cell growth or viability, resazurin; 5 days): < 4.52
